Published values pooled from the literature.
Each line is one published result; not all experiments were run side by side. Values joined by “and” are separate records of one study, mostly repeats; a detail may differ. ± gives the spread as reported.
Sequence of UniProt Q13153 (whole entry, looked up): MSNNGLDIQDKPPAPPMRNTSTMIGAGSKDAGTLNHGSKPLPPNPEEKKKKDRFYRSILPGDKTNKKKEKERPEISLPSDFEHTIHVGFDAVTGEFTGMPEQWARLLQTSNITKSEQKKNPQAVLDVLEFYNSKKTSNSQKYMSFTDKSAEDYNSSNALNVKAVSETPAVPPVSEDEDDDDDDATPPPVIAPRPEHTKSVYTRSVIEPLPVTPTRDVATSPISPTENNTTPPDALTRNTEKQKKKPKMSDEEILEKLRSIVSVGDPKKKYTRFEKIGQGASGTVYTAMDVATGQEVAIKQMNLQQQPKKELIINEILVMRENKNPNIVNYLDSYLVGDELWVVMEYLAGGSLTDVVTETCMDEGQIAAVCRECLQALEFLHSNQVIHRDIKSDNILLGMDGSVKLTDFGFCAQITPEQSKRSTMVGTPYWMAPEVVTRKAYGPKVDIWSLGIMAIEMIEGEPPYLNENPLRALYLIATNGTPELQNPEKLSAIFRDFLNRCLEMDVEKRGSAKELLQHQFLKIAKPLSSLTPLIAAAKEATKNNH
Sequence of UniProt Q12866 (whole entry, looked up): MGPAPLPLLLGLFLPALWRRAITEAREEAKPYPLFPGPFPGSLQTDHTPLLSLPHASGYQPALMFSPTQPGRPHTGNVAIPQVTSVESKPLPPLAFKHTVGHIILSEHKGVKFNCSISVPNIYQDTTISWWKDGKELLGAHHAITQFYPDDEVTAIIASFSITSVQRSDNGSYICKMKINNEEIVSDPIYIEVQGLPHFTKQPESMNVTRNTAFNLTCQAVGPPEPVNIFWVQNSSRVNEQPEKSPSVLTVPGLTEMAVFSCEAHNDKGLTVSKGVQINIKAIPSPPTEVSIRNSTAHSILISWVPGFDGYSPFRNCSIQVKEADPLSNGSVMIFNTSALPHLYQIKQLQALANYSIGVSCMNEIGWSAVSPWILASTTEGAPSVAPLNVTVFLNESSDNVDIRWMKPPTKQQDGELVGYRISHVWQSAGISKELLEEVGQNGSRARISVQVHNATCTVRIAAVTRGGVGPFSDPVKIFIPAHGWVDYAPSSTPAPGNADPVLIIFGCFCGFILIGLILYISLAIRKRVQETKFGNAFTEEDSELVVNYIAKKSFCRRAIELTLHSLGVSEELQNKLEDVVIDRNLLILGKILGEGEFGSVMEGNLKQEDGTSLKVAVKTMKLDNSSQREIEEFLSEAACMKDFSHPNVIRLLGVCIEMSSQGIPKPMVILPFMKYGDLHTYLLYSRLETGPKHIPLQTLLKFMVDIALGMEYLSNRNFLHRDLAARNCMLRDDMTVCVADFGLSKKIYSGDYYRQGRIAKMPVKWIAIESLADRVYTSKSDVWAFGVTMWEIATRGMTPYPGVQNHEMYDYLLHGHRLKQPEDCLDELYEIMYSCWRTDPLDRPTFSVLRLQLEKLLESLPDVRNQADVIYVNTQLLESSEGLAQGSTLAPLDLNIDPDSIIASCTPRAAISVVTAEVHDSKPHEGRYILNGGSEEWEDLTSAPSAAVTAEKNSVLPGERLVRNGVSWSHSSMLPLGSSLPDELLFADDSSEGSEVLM
Sequence of UniProt Q14004 (whole entry, looked up): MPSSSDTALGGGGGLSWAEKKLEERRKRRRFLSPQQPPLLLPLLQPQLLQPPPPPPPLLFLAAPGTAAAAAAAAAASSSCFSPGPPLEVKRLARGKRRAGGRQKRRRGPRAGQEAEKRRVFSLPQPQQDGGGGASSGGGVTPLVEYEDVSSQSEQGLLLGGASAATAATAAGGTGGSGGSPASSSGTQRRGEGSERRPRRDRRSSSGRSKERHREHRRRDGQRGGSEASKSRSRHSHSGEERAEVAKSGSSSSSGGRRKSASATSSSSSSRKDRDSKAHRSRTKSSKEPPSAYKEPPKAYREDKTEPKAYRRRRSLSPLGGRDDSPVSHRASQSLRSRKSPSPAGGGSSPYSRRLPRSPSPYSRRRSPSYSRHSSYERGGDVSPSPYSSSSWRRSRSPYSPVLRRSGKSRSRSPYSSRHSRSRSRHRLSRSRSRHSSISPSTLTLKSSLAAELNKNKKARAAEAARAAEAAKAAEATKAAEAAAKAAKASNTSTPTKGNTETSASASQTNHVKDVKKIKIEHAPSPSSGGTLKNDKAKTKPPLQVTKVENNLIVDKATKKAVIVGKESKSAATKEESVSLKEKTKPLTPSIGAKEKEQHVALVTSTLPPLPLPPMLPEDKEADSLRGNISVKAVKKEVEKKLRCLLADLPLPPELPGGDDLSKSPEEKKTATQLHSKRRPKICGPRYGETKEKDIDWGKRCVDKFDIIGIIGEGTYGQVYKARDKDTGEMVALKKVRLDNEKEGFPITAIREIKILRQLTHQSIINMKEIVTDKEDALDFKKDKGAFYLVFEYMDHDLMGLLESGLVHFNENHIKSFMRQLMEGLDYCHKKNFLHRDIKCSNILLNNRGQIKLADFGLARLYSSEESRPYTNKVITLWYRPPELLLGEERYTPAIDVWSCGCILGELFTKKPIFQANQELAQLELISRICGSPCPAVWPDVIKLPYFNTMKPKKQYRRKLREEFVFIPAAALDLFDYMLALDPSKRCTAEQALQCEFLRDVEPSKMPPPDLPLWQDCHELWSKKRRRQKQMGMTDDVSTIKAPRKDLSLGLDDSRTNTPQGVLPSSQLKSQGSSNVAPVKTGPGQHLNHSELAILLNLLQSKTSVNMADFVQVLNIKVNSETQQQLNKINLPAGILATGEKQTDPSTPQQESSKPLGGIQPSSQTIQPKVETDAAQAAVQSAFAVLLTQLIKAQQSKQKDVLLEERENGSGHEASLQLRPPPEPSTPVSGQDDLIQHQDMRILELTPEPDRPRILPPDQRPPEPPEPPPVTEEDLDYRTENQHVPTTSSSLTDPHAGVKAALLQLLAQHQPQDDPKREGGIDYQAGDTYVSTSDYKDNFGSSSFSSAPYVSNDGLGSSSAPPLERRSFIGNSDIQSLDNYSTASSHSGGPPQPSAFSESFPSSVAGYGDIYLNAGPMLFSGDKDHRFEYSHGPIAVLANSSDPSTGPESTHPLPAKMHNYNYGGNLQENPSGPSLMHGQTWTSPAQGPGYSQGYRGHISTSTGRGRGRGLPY

SMILES | tested on | assay | system | conditions | scale | quantity | value
CC(C)(C)C(=O)OCOP(=O)(OCOC(=O)C(C)(C)C)C1CCCN(O)C1=O (stereo not drawn) | UACC-62 |  |  |  |  | GI50 | 318 nM
CC(C)CC(C(=O)N1CC2(CC1C#N)C(=O)Nc1ccccc12)N(C)C(=O)c1cc2c(F)cc(F)c(F)c2[nH]1 (stereo not drawn) | Human coronavirus 229E | cytopathic effect | MRC5 | 3.98 µM |  | inhibition | 93.5%
CC(C)[C@H]1NC(=O)C[C@H]2/C=C/CCSSC[C@@H](NC1=O)C(=O)N[C@H](Cc1cccc3ccccc13)C(=O)NCC(=O)O2 | PAK1 (Homo sapiens, UniProt Q13153) | enzyme activity, inhibitor |  | 10 µM |  | inhibition | 2.4%
NCCO.O=C(O)C(Cl)Cl | Chenopodium album | herbicidal activity |  | 15 mg/mL, 21 days, pre-emergence greenhouse |  | inhibition | 0%
CS(C)(=O)=Nc1ccc(-c2ccc(-c3nc4cc(O[C@@H]5CO[C@H]6[C@@H]5OC[C@H]6O)[nH]c4cc3F)cc2)cc1 | MERTK (Homo sapiens, UniProt Q12866) | enzyme activity, inhibitor |  | 10 µM |  | inhibition | -2%
CCN(CC)C(=O)[C@@H]1C=C2c3cccc4c3c(cn4C(=O)c3cccs3)C[C@H]2N(C)C1 |  | magnetometer | C57BL/6J mouse, male | intraperitoneal, 1.5 mg/kg, 30 min session |  | head-twitch response count | 42.3
COc1ccccc1-c1n[nH]c2nc(NC3CCN(C(=O)Cc4ccc(F)cc4F)CC3)ncc12 |  | bead binding, competition bead pull-down, measured: LINJ.10.0330 | Leishmania donovani axenic amastigote extract | 10 µM | relative to: vehicle | relative abundance | 0.96
Cc1cc(Oc2nc(N3CC[C@@H](c4ccncc4)C3)ncc2F)[nH]n1 | Mycobacterium tuberculosis |  | non-replicating, ex vivo rabbit caseum | concentration not given, 168 h |  | activity | inactive
Cc1cc(C(=O)Nc2nc3cccc(C)c3n2[C@H]2CCCCN(C(=O)/C=C/CN(C)C)C2)ccn1 | Trypanosoma brucei |  | CLK1 C215S overexpressing | 15 x EC50 |  | survival | 93.9% and 93.2% and 87.4%
O=C1NC2(CC2)COc2ncc(F)cc2[C@H]2COCCN2c2ccn3ncc1c3n2 |  |  | Sprague-Dawley rat, male, serum | oral, 20 mg/kg/day, end of treatment, 4-week subacute toxicity |  | serum hepatic lipase activity | 3.5 ± 0.5 U/L
COc1ccccc1-c1n[nH]c2nc(N[C@H]3CC[C@H](NS(=O)(=O)CC(C)C)CC3)ncc12 |  | bead binding, competition bead pull-down, measured: LMJF.21.1552 | Leishmania donovani extract | 10 µM | relative to: vehicle | relative abundance | 1.11
CN(C)[C@H]1C[C@@]23CC[C@@]4(O2)C(=CC[C@]2(C)[C@@H](c5ccc6ccncc6c5)CC[C@H]24)C=C3[C@@H](O)[C@@H]1O | CDK13 (Homo sapiens, UniProt Q14004) | ATP probe labelling, inhibitor, KiNativ profiling |  | 0.1 µM |  | inhibition | 7%
